# Measurements pooled from the literature.
# Each line is one published result; not all experiments were run side by side. Numbers after ± are the reported error.
SMILES,assay,system,setting,half-life
CCC(CC)COC(=O)[C@H](C)N[P@](=O)(OC[C@H]1O[C@@](C#N)(c2ccc3c(N)ncnn23)[C@H](O)[C@@H]1O)Oc1ccccc1,,CD-1 mouse liver microsomes,"1 µM, pH 7.4, without NADPH",0.0167 h
CCOc1ccc(Cc2cc([C@@H]3S[C@H](CO)[C@@H](O)[C@H](O)[C@H]3O)c(OC)cc2C)cc1,,"Japanese type 2 diabetes patients, plasma","oral, 5 mg single dose, eGFR 60-89 mL/min/1.73 m^2",10.9 ± 0.752 h
NC(=O)c1cnc2[nH]ccc2c1N[C@@H]1[C@@H]2CC3C[C@H]1C[C@@](O)(C3)C2,,"healthy Japanese men, plasma","oral, 200 mg, single dose fasted",7.5 h
COc1ccc2c3c1O[C@H]1C[C@@H](OC(=O)c4ccccc4)C=C[C@@]31CCN(C)C2,,"healthy young men, plasma","intranasal, 5.5 mg, single dose",1.07 h
COc1cc(OC)c(/C=C/S(=O)(=O)Cc2ccc(OC)c(NCC(=O)O)c2)c(OC)c1,,"cancer patients, phase I, plasma","oral, 700 mg twice daily, day 21 cycle 1",1.99 ± 0.47 h
CC(C)(c1ccc(O)cc1)c1ccc(O)cc1,GC-MS,exposure tank water,"5000 ng/L, 20 °C",3.75 h
CS(=O)(=O)n1cc2c(n1)CN([C@H]1CO[C@H](c3cc(F)ccc3F)[C@@H](N)C1)C2,,"healthy Japanese men, plasma","oral, 50 mg once weekly, day 15",73.7 h
CC(C)[C@H](N)C(=O)OC[C@H]1O[C@@H](n2cc(F)c(=O)[nH]c2=O)C[C@@H]1O,,human small intestine homogenate,"pH 7.4, 37 °C, protein 1000 µg/mL",0.258 ± 0.0267 h
Cc1ccc(NC(=O)c2ccc(CN3CCN(C)CC3)cc2)cc1Nc1nccc(-c2cncc(-c3oncc3C)c2)n1,,"healthy volunteers, plasma","oral, 12.5 mg once daily, day 1, 7-day dosing, mean",13.1 h
